Published values collected from several papers.

For `C[C@@H](N)C1CCN(S(=O)(=O)c2cccc3cnccc23)CC1`, “incidence of orthostatic hypotension TEAE” read 0% (healthy volunteers; 150 mg, fed).
For `CCO[C@H]1CCN(Cc2c(OC)cc(C)c3[nH]ccc23)[C@H](c2ccc(C(=O)O)cc2)C1`, “incidence of dry throat” read 14.3% (PNH patients, active haemolysis; oral, 100 mg, 8 weeks, treatment).
`O=C(Nc1nc2cccc(-c3ccc(CN4CCS(=O)(=O)CC4)cc3)n2n1)C1CC1`: “incidence of gastritis” 0% (rheumatoid arthritis patients; oral, 150 mg once daily, 4 weeks, TEAE regardless of relatedness).
Under “incidence of grade ≥3 thrombocytopenia”, `N#CCNC(=O)c1ccc(-c2ccnc(Nc3ccc(N4CCOCC4)cc3)n2)cc1` is recorded as 10.8% (patients with myelofibrosis; oral, 200 mg, 24 weeks, phase III trials).
`C[C@@H](c1ccc2nccn2c1)n1nnc2ncc(-c3cnn(C)c3)nc21`: “incidence of treatment-related AEs” 0% (measured: ALT increased; EGFR-mutant MET-altered NSCLC patients; oral, dose not given, AE grade ≥3).
`COc1ccc([C@@H](O)c2cc(-c3ncnc4cc(N5CCOCC5)ccc34)c(F)cc2Cl)nn1` — result for “incidence of proctitis TEAE”: 67% (locally advanced rectal cancer; oral, 250 mg, together with: capecitabine and radiotherapy).
Under “incidence of blood creatinine increased”, `NC1(C(=O)N[C@@H](CCO)c2ccc(Cl)cc2)CCN(c2nc[nH]c3nccc2-3)CC1` is recorded as 0% (metastatic CRPC patients; 480 mg b.i.d., any grade, treatment-related, together with: enzalutamide 160 mg daily).
`C=CC(=O)Nc1cc(Nc2nccc(-c3cn(C)c4ccccc34)n2)c(OC)cc1N(C)CCN(C)C` — result for “incidence of treatment-related AEs”: 4% (measured: drug hypersensitivity; EGFR-mutant MET-altered NSCLC patients; oral, dose not given, AE grade ≥3, all).
Under “incidence of serious TRAE”, `NCCONC(=O)[C@@H]1CC[C@@H]2CN1C(=O)N2OS(=O)(=O)O` is recorded as 0% (healthy Chinese male subjects; intravenous, 1 g).

Excerpt of the above:
Under “incidence of blood creatinine increased”, `NC1(C(=O)N[C@@H](CCO)c2ccc(Cl)cc2)CCN(c2nc[nH]c3nccc2-3)CC1` is recorded as 0% (metastatic CRPC patients; 480 mg b.i.d., any grade, treatment-related, together with: enzalutamide 160 mg daily).
